Experimental data gathered from unrelated publications.
Parts stem from different laboratories: compare values within a part only. Several values in a cell are separate wells, animals, samples, runs or records.

Block 1
Structure (SMILES): C[C@@H]1CN(c2ccc(-c3cc(C(=O)NCCOCCOCCOCCOCCNC(=O)/C=C/c4[nH]cc(C(=O)N[C@@H](CC(N)=O)c5ccc(F)c(Cl)c5)c4-c4ccc(Cl)cc4F)ccc3F)cc2NC(=O)c2c[nH]c(=O)cc2C(F)(F)F)C[C@H](C)N1C
Observed: thermal unfolding
Technique: differential scanning fluorimetry
Concentration: 5.5 µM
Reading: higher = more unfolded
Quantity: SYPRO Orange fluorescence
WDR5: WD repeat-containing protein 5 (WDR5, Homo sapiens, UniProt P61964)
DCAF1: DDB1- and CUL4-associated factor 1 (DCAF1, Homo sapiens, UniProt Q9Y4B6)
Chain of UniProt Q9Y4B6 (whole entry, looked up): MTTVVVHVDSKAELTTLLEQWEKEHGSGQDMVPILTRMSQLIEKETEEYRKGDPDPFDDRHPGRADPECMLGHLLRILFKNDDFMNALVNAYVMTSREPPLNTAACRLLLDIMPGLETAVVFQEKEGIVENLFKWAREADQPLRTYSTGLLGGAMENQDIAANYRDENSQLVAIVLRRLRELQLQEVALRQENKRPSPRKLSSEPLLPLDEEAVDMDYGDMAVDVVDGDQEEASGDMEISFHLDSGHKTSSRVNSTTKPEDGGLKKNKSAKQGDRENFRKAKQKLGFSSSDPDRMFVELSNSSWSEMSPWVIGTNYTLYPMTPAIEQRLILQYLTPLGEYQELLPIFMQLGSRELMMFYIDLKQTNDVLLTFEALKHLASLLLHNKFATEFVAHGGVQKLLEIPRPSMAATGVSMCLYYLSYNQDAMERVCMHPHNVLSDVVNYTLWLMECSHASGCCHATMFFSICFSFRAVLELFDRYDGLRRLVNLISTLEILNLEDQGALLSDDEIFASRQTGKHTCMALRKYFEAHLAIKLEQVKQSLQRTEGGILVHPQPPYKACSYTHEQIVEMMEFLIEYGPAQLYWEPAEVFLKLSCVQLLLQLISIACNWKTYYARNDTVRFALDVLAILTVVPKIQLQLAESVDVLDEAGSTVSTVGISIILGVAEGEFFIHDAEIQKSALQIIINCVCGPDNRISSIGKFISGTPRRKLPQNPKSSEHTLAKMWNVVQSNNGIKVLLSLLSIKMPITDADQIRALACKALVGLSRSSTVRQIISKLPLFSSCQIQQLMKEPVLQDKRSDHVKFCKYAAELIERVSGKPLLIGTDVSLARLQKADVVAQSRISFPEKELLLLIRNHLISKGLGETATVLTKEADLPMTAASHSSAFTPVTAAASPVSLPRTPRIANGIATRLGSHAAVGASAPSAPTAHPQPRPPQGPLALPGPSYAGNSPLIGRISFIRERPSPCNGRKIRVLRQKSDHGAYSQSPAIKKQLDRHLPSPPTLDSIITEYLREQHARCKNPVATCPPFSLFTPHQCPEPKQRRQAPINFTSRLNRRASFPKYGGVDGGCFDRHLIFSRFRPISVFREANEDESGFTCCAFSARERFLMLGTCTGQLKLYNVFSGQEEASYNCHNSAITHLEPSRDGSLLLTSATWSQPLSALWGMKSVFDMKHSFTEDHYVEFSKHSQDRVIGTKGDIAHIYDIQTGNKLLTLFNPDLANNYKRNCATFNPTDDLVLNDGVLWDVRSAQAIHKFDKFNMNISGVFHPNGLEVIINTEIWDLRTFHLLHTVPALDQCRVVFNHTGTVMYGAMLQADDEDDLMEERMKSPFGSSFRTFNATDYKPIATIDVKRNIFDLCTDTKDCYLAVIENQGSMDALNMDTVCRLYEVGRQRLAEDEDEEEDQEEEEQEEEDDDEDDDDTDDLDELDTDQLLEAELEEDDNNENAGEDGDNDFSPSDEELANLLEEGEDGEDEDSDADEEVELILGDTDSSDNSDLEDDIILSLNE
WDR5; 35.6 °C: 13300 a.u.
DCAF1; 82.61 °C: 42600 a.u.
DCAF1; 58.41 °C: 33100 a.u.
WDR5; 90.21 °C: 50900 a.u.
DCAF1; 57.61 °C: 29600 a.u.
DCAF1; 68.01 °C: 58100 a.u.
DCAF1; 71.41 °C: 54100 a.u.
WDR5; 57.81 °C: 16300 a.u.
WDR5; 61.61 °C: 15100 a.u.
WDR5; 90.41 °C: 50700 a.u.
WDR5; 28.2 °C: 12900 a.u.

Block 2
Structure (SMILES): CCN1/C(=C/C=C2\CCCC(/C=C/C3=[N+](CC)c4ccccc4C3(C)C)=C2NCCCCCCCCN2CCC(Nc3nc4ccccc4n3Cc3ccc(F)cc3)CC2)C(C)(C)c2ccccc21
Cell line: U-87 MG
Concentration: concentration not given
Reference: DMSO
Quantity: log2 fold change
item: TIMP1 mRNA: 1.56
item: SIM1 mRNA: -1.98
item: KCTD16 mRNA: 1.74
item: TOM1L1 mRNA: 0.979
item: SNRK mRNA: 0.915
item: SPC25 mRNA: -2.02
item: CSTF2T mRNA: -1.17
item: KCNN3 mRNA: 1.6
item: RTKN2 mRNA: -1.49
item: ZRANB1 mRNA: 1.09
item: PARD3B mRNA: 1.27
item: GADD45A mRNA: 1.8
item: LBR mRNA: -1.45
item: ALPK1 mRNA: 1.18
item: EPC1 mRNA: 0.825
item: SCARA3 mRNA: -2

Block 3
SMILES: Cc1ccc(O)c(C)c1-c1cnc2[nH]c(-c3cnc(N4CCC5(CC4)CC(N4CCN(c6ccc(N[C@H]7CCC(=O)NC7=O)cc6F)CC4)CO5)nc3)cc2c1C#N (single isomer, unassigned)
Matrix: plasma
Route: oral
Quantity: AUC(0-t)
male cynomolgus monkey; 10 mg/kg: 1720 ng·h/mL
female CD-1 mouse; 40 mg/kg: 7440 ng·h/mL
male beagle dog; 5 mg/kg: 7460 ng·h/mL

Block 4
Structure (SMILES): Cc1ncsc1-c1ccc(C(CO)NC(=O)C2CC(O)CN2C(=O)C(C(C)C)n2cc(-c3ccc(COc4c(-c5c(C)c(F)cc6[nH]ncc56)c(C5CC5)cc5c(N6CC7CC6CN7)nc(OC6CCOCC6)nc45)cc3)nn2)cc1 (stereo not shown)
Quantity: body weight
mouse, lung LXFA sample B PDX; 30 mg/kg twice weekly, day 7: 26.6 g and 22.9 g
mouse, ASPC1 xenograft; 30 mg/kg twice weekly, day 7: 25 g
mouse, PK-59 xenograft; subcutaneous, 30 mg/kg once daily, day 8: 20.6 g and 19.4 g and 18.7 g and 21.8 g
mouse, A-375 xenograft; sc, 30 mg/kg once daily, day 15: 19.9 g and 18.5 g and 19.7 g and 18.4 g and 19.4 g
mouse, HT-29 xenograft; sc, 30 mg/kg once daily, day 8: 18.9 g and 18.1 g and 20.6 g and 17.1 g and 20.8 g
mouse, PK-59 xenograft; 10 mg/kg, day 4: 23.6 g and 24.9 g and 24 g and 26 g and 28.2 g
mouse, lung LXFA sample B PDX; 30 mg/kg twice weekly, day 18: 25.4 g and 27 g

Repeated from above (block 2):
item: ZRANB1 mRNA: 1.09
item: SIM1 mRNA: -1.98
